# Results of several laboratories.
# Lines come from different studies, so protocols differ. Several values in a cell are separate wells, animals, samples, runs or records.
# HLA class I histocompatibility antigen, B alpha chain: HLA class I histocompatibility antigen, B alpha chain (Homo sapiens, UniProt P01889)
# PFF0160c: Dihydroorotate dehydrogenase (quinone), mitochondrial (PFF0160c, Plasmodium falciparum, UniProt Q08210)
# gyrA: DNA gyrase subunit A (gyrA, Escherichia coli K-12, UniProt P0AES4)
# PFF0160c E182D: Dihydroorotate dehydrogenase (quinone), mitochondrial (PFF0160c, Plasmodium falciparum, UniProt Q08210, E182D)
# Sialidase-3: Sialidase-3 (Homo sapiens, UniProt Q9UQ49)
SMILES,target,test,IC50
CC[C@H](C)[C@H](NC(=O)[C@@H]1CCCN1C(=O)CNC(=O)[C@@H]1CCCN1C(=O)[C@H](Cc1ccc(O)cc1)NC(=O)[C@H](CC(C)C)NC(=O)[C@@H](N)CCCCN)C(=O)N[C@@H](CC(C)C)C(=O)N[C@@H](CCSC)C(=O)O,"HLA class I histocompatibility antigen, B alpha chain",cell-free assay,35600 nM
CCn1cc(C)c2c([C@@H](O)c3ccc(C(F)(F)F)nc3)n(C)nc2c1=O,PFF0160c,"enzyme activity, inhibitor",251 nM
CN1C(=O)Cc2ccc(F)c(CNCCCC3CN(c4ccc5c(n4)NC(=O)CO5)C(=O)O3)c21 (centres unmarked),gyrA,"enzyme activity, inhibitor",54 nM
Cn1nc(C(=O)N2CCC(c3[nH]ncc3Cc3ccccc3)CC2)c2ccccc2c1=O,PFF0160c E182D,"enzyme activity, inhibitor, absorbance",800 nM
CC(C)C[C@H](NC(=O)[C@H](Cc1ccccc1)NC(=O)[C@H](Cc1ccc(O)cc1)NC(=O)CNC(=O)[C@H](CCCCN)NC(=O)[C@H](CO)NC(=O)[C@H](CCC(N)=O)NC(=O)CNC(=O)[C@@H](NC(=O)[C@H](CO)NC(=O)[C@@H]1CCCN1C(=O)[C@H](CO)NC(=O)[C@H](CCC(N)=O)NC(=O)[C@H](Cc1ccc(O)cc1)NC(=O)[C@H](CCC(=O)O)NC(=O)[C@H](C)NC(=O)[C@H](CCCCN)NC(=O)[C@@H](N)Cc1ccccc1)C(C)C)C(=O)N[C@@H](Cc1ccccc1)C(=O)N[C@@H](CCCNC(=N)N)C(=O)N1CCC[C@H]1C(=O)N[C@@H](CCCNC(=N)N)C(=O)N[C@@H](CC(N)=O)C(N)=O,"NMUR1 (Homo sapiens, UniProt Q9HB89)","ligand displacement, radioligand",0.0427 nM
CCN(C)C(=O)Oc1ccc(CCC(=O)N(CC)CC)cc1OC,"Cholinesterase (BCHE, Equus caballus, UniProt P81908)","enzyme activity, inhibitor, Ellman",18100 nM
Cn1nc2c(=O)n(C3CC3)nc(C3CC3)c2c1Cc1ccc(C(F)(F)F)c(F)c1,PFF0160c,"enzyme activity, inhibitor",48 nM
Cc1nc2c(=O)sc3ccccc3c2n1Cc1ccccc1,PFF0160c E182D,"enzyme activity, inhibitor, absorbance",97.8 nM
CCCCCC(=O)N(C)[C@H]1[C@H]([C@H](O)[C@H](O)CO)OC(C(=O)O)=C[C@@H]1O,"Sialidase-4 (Homo sapiens, UniProt Q8WWR8)","enzyme activity, inhibitor",300000 nM
O=c1cc(NCCCNCc2sc(Br)c(Br)c2Br)[nH]c2ccccc12,PFF0160c,"enzyme activity, inhibitor, absorbance",591 nM
Cc1cn([C@H]2[C@H]([C@H](O)[C@H](O)CO)OC(C(=O)O)=C[C@@H]2O)nn1,Sialidase-3,"enzyme activity, inhibitor",7500 nM
CC[C@H](C)[C@H](NC(=O)[C@@H](N)Cc1c[nH]cn1)C(=O)N[C@@H](Cc1ccccc1)C(=O)N[C@@H](CO)C(=O)N[C@@H](CCCNC(=N)N)C(=O)N1CCC[C@H]1C(=O)N[C@@H](CCSC)C(=O)N[C@H](C(=O)N[C@@H](Cc1ccccc1)C(=O)O)[C@@H](C)O,"HLA class I histocompatibility antigen, B alpha chain",cell-free assay,8210 nM
C=CCn1c(SCC(=O)Nc2cc(C)ccc2OC)nc2sc(C)cc2c1=O,PFF0160c,"enzyme activity, inhibitor, absorbance",7530 nM
CCN[C@H]1[C@H]([C@H](O)[C@H](O)CO)OC(C(=O)O)=C[C@@H]1O,Sialidase-3,"enzyme activity, inhibitor",190000 nM
COc1cc(CCC(=O)N2CCC(Cc3ccccc3)CC2)ccc1OC(=O)N(C)C,"Cholinesterase (BCHE, Homo sapiens, UniProt P06276)","enzyme activity, inhibitor, Ellman",950 nM
CC[C@H](C)[C@H](NC(=O)[C@@H]1CCCN1C(=O)[C@H](CCCCN)NC(=O)[C@H](Cc1ccc(O)cc1)NC(=O)[C@H](CCSC)NC(=O)[C@@H](N)CCCNC(=N)N)C(=O)N[C@H](C(=O)N[C@@H](Cc1c[nH]cn1)C(=O)N[C@@H](Cc1ccccc1)C(=O)O)[C@@H](C)O,"HLA class I histocompatibility antigen, B alpha chain",cell-free assay,67700 nM
CCN(CC)c1ccc(C=NNC(=O)c2ccc(F)cc2)c(OS(=O)(=O)c2ccc(OC)cc2)c1,"CA2 (Homo sapiens, UniProt P00918)","enzyme activity, inhibitor, absorbance",112 nM
CCOC(=O)c1[nH]nc(Cc2ccc(C(F)(F)F)cc2)c1C,PFF0160c,"enzyme activity, inhibitor, absorbance",> 100000 nM
CCn1c(-c2ccccc2)cc2nnc3ccccc3c21,PFF0160c E182D,"enzyme activity, inhibitor, absorbance",482 nM
CC[C@@](N)(c1cnc(C(F)(F)F)c(Cl)c1)c1c2ncn(C3CC3)c(=O)c2nn1C,PFF0160c,"enzyme activity, inhibitor",50.1 nM
CCN(C)C(=O)Oc1ccc(CCC(=O)N2CCN(Cc3ccccc3)CC2)cc1,"Cholinesterase (BCHE, Equus caballus, UniProt P81908)","enzyme activity, inhibitor, Ellman",26500 nM
N[C@@H](Cc1ccc(O)cc1)C(=O)N[C@@H](CC(=O)O)C(=O)N[C@@H](Cc1ccccc1)C(=O)NCC(=O)NCC(=O)O,"ACE (Homo sapiens, UniProt P12821)","enzyme activity, inhibitor",~16300 nM and 16300 nM
COc1cc(Nc2ccnc3cc(-c4ccncc4)ccc23)cc(OC)c1OC,PFF0160c,"enzyme activity, inhibitor, absorbance",1910 nM
Cn1nc2c(=O)n(C3CC3)ncc2c1[C@](N)(c1ccc(C(F)(F)F)c(Cl)c1)C1CC1,PFF0160c,"enzyme activity, inhibitor",15.8 nM
O=C(O)C1=C[C@H](O)[C@@H](n2cc(-c3ccc(-c4ccccc4)cc3)nn2)[C@H]([C@H](O)[C@H](O)CO)O1,Sialidase-3,"enzyme activity, inhibitor",> 500000 nM
CCC1(c2ccccc2)NC(=O)N(NC(=O)c2ccc3noc(-c4ccccc4)c3c2)C1=O (centres unmarked),PFF0160c,"enzyme activity, inhibitor, absorbance",> 10000 nM
CC[C@H](C)[C@H](NC(C)=O)C(=O)N[C@@H](CCC(=O)O)C(=O)N[C@H](C(=O)N[C@H](C=O)CC(=O)O)[C@@H](C)O,"Caspase-8 (CASP8, Homo sapiens, UniProt Q14790)","enzyme activity, inhibitor",1.63 nM
c1nc2nc3c(c(Nc4ccc5c(c4)CCC5)n2n1)CCC3,PFF0160c,"enzyme activity, inhibitor, absorbance",2500 nM
Cn1c(=O)ccc2ccc(F)c(CCNC[C@H]3CN(c4ccc5c(n4)NC(=O)CO5)C(=O)O3)c21,gyrA,"enzyme activity, inhibitor",34 nM

# Some of these lines once more:
SMILES,target,test,IC50
CCN(C)C(=O)Oc1ccc(CCC(=O)N2CCN(Cc3ccccc3)CC2)cc1,"Cholinesterase (BCHE, Equus caballus, UniProt P81908)","enzyme activity, inhibitor, Ellman",26500 nM
CN1C(=O)Cc2ccc(F)c(CNCCCC3CN(c4ccc5c(n4)NC(=O)CO5)C(=O)O3)c21 (centres unmarked),gyrA,"enzyme activity, inhibitor",54 nM
CCN(CC)c1ccc(C=NNC(=O)c2ccc(F)cc2)c(OS(=O)(=O)c2ccc(OC)cc2)c1,"CA2 (Homo sapiens, UniProt P00918)","enzyme activity, inhibitor, absorbance",112 nM
